# Assay results gathered from unrelated publications.
# A part holds a random share of what one study measured.

# Series 1 — method: protein-binding microarray; form: double-stranded DNA, one strand shown; matrix: in vitro; tested at: not given; direction: higher = stronger binding
# Target: Myc proto-oncogene protein, bHLH-zipper, MAX partner unstated (MYC, Homo sapiens, UniProt P01106, residues 368-449)
# Sequence of UniProt P01106 (368-449, looked up): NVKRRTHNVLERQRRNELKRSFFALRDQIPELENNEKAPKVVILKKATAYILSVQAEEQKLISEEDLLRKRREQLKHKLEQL
# Setting: k-mer, scored over probes, only values ≥0.25
Sequence,E-score
CCCCCGCA,0.284
CCACACGC,0.397
TGGAGCCA,0.285
GCACGCGA,0.414
CATGCCCA,0.315
GCCCACAC,0.27
CGCGTTGC,0.295
AGCACGCG,0.462
GTGCTCAA,0.266
CGCACGCA,0.395
ACAACCAC,0.304
CCACCCCG,0.327
CACCTCAC,0.282
ACGTTGCA,0.292
GAACACGA,0.355
ATGACGTG,0.264
CGTGTCAA,0.366
CCACGCCA,0.416
CGTGGCAA,0.341

# Series 2 — method: protein binding microarray; form: double-stranded DNA, one strand shown; matrix: in vitro; tested at: not given; reference: not given; direction: higher = stronger binding
# Target: Histone acetyltransferase KAT6A, both winged helices, GST fusion (KAT6A, Homo sapiens, UniProt Q92794, residues 1-181)
# Setting: 8-mer, flanks averaged, mean of 2 arrays, mostly near background
# Construct (chain): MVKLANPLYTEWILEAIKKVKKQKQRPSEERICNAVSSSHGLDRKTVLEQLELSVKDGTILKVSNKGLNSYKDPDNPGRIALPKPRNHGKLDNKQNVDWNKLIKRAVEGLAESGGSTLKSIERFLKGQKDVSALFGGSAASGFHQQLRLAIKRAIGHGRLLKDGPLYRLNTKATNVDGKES
Sequence,E-score
CGCACAAA,0.104
ACGAGCAG,-0.0932
AGGCAGAC,-0.19
AGGTTTCG,0.0512
ATCCCAAC,-0.233
GGGCTTGA,-0.0916
ACCGCCCA,0.0851
AGACAATA,-0.0225
CCACCCCG,0.138
AGTGCTAA,0.0362
GTCGGTCA,0.0756
CTCCGCAA,0.101
ACCGGATA,0.0593
ACAGGGGG,-0.172
CTGGGCCC,-0.122
TGCATCCA,-0.166
GATCAACC,0.0407

# Series 3 — method: RNA Bind-n-Seq; form: RNA; matrix: in vitro; tested at: 365 nM; reference: no-protein control; direction: higher = stronger binding
# Target: RNA binding protein fox-1 homolog 2, RRM domain, GST-SBP tag (RBFOX2, Homo sapiens, UniProt O43251-10, residues 100-194)
# Setting: natural RNA segment, single round, ends assumed
# All sequences stand within: GGGAGUUCUACAGUCCGACGAUC … UGGAAUUCUCGGGUGCCAA
# Construct (chain): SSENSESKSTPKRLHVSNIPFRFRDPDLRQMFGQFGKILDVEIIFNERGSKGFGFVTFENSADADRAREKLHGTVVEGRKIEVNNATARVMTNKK
Sequence,RBNS enrichment (R)
UCUUUUUUUUUUCUGCUGAAAUGAAGCUACAUGUCAUGUUUGUGUUCUUUCAUCUGUGGCUCAUCCCUGUAAAACUACGAAUCUGAGCCUCAAAUAAGCAGUAGUUUUUU,0.549
AUGUCUGCUUCCGUCCCCUCGUUCUGGUGAACGUUGGGAGAGAGGAUGAGAGAGACAUUAAAAUUCUGGAGAUGUGCUUUUAUGAUGUUACAGAUCCAAAGACAUAGAGU,0.511
GCUUCACACAGCUCCCCUGCUUCUAAAGGAUAAGGUACUGUAGCCUUGGUCCUGGGGACCACCUGCCUGGGGCAGUGGACAUCCUAACUAAACAGGCUUCUGGCAGUAGC,0.486
UUCUGAAGAAUGAGUUUGUUUGCAAUUUGUAAGUGAAACUGAAUUAUGGGUACAUUCAAGACAAGAGUGUUCCAUUGACUGCAGCUAUCCAAGGACCGCCUGUUCAUAAG,0.787
AGCAUGCUUGGGCUGACCCAGCAUCUCCCAGCAAGACCUCAUCUGUGGAGCUGCCACAGAGAAGUUUGUAGCCAGGUACUGCAUUCUCUCCCAUCCUGGGGCAGCACUCC,7.96
UUCCUCUUCAAGAAAAAAAAAGCAGAGUUUUUUUGCUUUUCAACUCUAUUUUGUUCUUAAAUAAGCAAGAAAAUUGCACGUUGUAUUCACUGACGACAACAAAAGCUUAG,0.992
GGACACUGGCCCCUCCACCCUCCCUCCCCUCCCGGCUCCCCGGCCAGAGGGAGAGCUUGGUCUCUGGACCUGCCUUAGGAAGGAGAGGGAGGGCAGGAAGGAAAAGAAAG,0.162
GCAAGAGCUGAACUCCUGCUGCCUGGUAGGCCCCACAAGGCCUAGUCUGGAAGCGUAUGGAAUCAGAAAUAAUCCUCAGUGUAAAAUGUCUUGUGAUUUUUCUCUGUGAA,0.334
CAGGAUGUCCUGCUCCAUCUGGCCGGCUCACUCCGUGUGGCCUGCCUUUGCUGACCGUUUUGGGGUUCCCCGCCGGAGCUACAGGGGCAUUUUCUUCCCUAAAACCAACA,0.282
GAAAAAUUCCAGUCCGAUUUCUUUGUGUGUCAGCUGACUUCCUUAGCUGAUUGUUCCCACUUGCACCUCUCCACCUUUGGCACUAGAACUCCUGAGACACCACUUCUCAU,0.458
UAACAUUGUGACUCUUACUCGUUUUUGUUGGUUAGCAGAGGUUCCUUUAUAGAGAAAGCCUUCCCUCAGCUCUUUUGUUACCUUGAGAUUUGCCAGUUUGGUGAAUACAG,0.54
UGCCUCAAAUUUGUAUAAGUGAUUGGCUAGUGAUUCUUGUUUUCAGAAGGGAGAGUGGUAUAGAUAGAAAAUGACAAAGAUGGCAAUAUACACUUAAUGUUGUUAUUGUA,1.03

# Series 4 — method: RNA Bind-n-Seq; form: RNA; matrix: in vitro; tested at: 20 nM; setting: 6-mer, flanks averaged, single round; added: 150 mM LiCl; reference: input library; direction: higher = stronger binding
# Target: TAR DNA-binding protein 43, full length, His tag (TARDBP, Homo sapiens, UniProt Q13148, residues 1-414)
Sequence,6-mer enrichment (R)
GAGGGG,1.47
UCGAUU,0.863
GGUAGU,1.14
CGUAGG,0.94
CUAAAU,0.885
GACAGG,0.991
UAGCAG,0.936
GACUAG,0.932
CACCCG,1.03
UAUGAU,1
AUGUUA,1.1
GAUGUA,1.05
CUUGGA,0.933
GCUCCG,0.905
CGCGUA,0.937
UAGCAC,0.875
GUAUGG,1.52
GAAUAA,0.975
AGUACG,0.916
CUCUCA,0.877
AUUGCC,0.95
AAUUAG,0.952
UUAACU,0.914
GCGGGG,1.35
CGGUCU,0.864

# Series 5 — method: protein-binding microarray; form: double-stranded DNA, one strand shown; matrix: in vitro; tested at: 2540 nM top; setting: 60-bp whole probe; added: salmon DNA 0.4 mg/ml; reference: random background probes; direction: higher = stronger binding; all sequences stand within: GCCTAGCAC … GTCTTGATTCGCTTGACGCTGCTG
# Target: Interferon regulatory factor 3, full length, phosphomimetic (IRF3, Homo sapiens, UniProt Q14653, residues 1-427, S386D/S396D/S398D/S402D/T404D/S405D)
# Sequence of UniProt Q14653 (whole entry, unmodified, looked up): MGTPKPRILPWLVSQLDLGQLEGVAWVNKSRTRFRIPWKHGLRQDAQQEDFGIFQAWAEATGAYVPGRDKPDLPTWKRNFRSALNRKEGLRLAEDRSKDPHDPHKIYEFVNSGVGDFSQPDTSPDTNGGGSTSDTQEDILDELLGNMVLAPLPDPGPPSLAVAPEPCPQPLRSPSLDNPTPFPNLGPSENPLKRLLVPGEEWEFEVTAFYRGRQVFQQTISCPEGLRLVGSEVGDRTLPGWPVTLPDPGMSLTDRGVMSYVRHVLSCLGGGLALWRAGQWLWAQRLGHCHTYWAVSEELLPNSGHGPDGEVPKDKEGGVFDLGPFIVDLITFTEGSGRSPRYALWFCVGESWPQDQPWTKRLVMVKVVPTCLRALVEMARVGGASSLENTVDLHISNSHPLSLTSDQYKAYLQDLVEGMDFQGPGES
Sequence,fitted relative affinity
TTAGATTTCAGCATCGATTAGTGCTAG,0.316 z-score
TTAGCACTGGACTTTCGGTTAGTGCTA,0.978 z-score
TTAGTTATCCTTTTCCTTTAGTGCTAG,6.04 z-score
TCAACTTTCTATGTCTGACTGTGCTAG,1.04 z-score
GTAGGTTTCCTACTGCTTTAGTGCTAG,4.87 z-score
TTAGCTATCGGTATCGGTTAGTGCTAG,3.21 z-score
GCCGAACTGGGGTTTCGAGACGTGCTA,1.23 z-score
TTAGTACTGAGACTGGATTAGTGCTAG,-0.326 z-score
TTAGGTATCGGTCTGGGTTAGTGCTAG,2.32 z-score
TTAGGACTGGGCCTCGGTTAGTGCTAG,-1.09 z-score
TTAAGTTCCGGTTTCGGTTAGTGCTAG,8.07 z-score
GAGATCATCCGTTTCTTCTAGTGCTAG,1.21 z-score
TTAGGTTTCGACTATCGGCTAGTGCTA,2.26 z-score
TCTTTCACAAGACGAAAGGAGTGCTAG,1.62 z-score
ATAGGTCTCCTTATCCTTTAGTGCTAG,2.86 z-score
TCATATTTAAGCTCCTATACTGTGCTA,0.725 z-score
TTAGGTTTCCTACTTCTTTAGTGCTAG,6.48 z-score

# Series 6 — method: RNA Bind-n-Seq; form: RNA; matrix: in vitro; tested at: 200 nM; setting: whole 134-nt RNA, ends assumed; added: 150 mM LiCl; reference: input library; direction: higher = stronger binding; each molecule: 7-deaza-guanosine replaces G
# Target: Fragile X messenger ribonucleoprotein 1, C-terminal low-complexity region (Fmr1, Mus musculus, UniProt P35922)
# All sequences stand within: GGGAGUUCUACAGUCCGACGAUC … UGGAAUUCUCGGGUGUCAAGG
Sequence,log2 enrichment
ACCAUGCAGGUGGGCAUCUUUGGGAAGUGGGGCAAGGGGGGAAUAGGGAGGGGGGUAACACUUUGGGAACAGGUGGUCCCAGGUCGUUUC,1.22
UUUUAGAAAGAGAAGGGGAAGAAAAUGAAGCCUUACAUAAGAUGAUUGCAAACGAGCAAAAGACUUCUCUCCCAAAUUUGUUCCAGGAUA,-2.88
UGUGAACUUGUAUGUGAAGAAUCUGGACGACUCCAUUGAUGACGACAAACUGAGGAAAGAGUUCUCUCCCUAUGGAGUAAUUACCAGUGC,0.881
CAAGUCCUGUGCUACACAUCGUAUGUACCGAAUCGGAAAAAGGUGGUUUUUUUGGAAAGUAUUAUGUUACGCCGUUCGGAUCUGCACUUC,-1.67
UCCUGUGCUACACAUCGUAUGUACCGAAUCAAACCCCCAAAUUUUUUUAAAUUUUUAAAAAAGUAUUAUGUUACGCCGUUCGGAUCUGCA,1.21
AAGUCCUGUGCUACACAUCGUAUGUACCGAAUCGGGAAAAAGGGUUUUUGGGAGGGAAAGUAUUAUGUUACGCCGUUCGGAUCUGCACUU,-1.47
AGUCCUGUGCUACACAUCGUAUGUACCGAAUCGGGGUUUGGGGAAAAAGGGGAGGGGAAAGUAUUAUGUUACGCCGUUCGGAUCUGCACU,-0.244
UAACUUUAGAGGAGGAGCUGAUGGAUAUGGCAGUGGACGUGGAUUUGGGGAUGGCUAUAAUGGGUAUGGAGGAGGACCUGGAGGUGGCAA,0.35
UUCCCUGAAGAUGAGAUCCCAGAGAAGGCCUGCAGGCGCCUGCUUGAAGGGAGGCGGCAGAAGAAGACGAAGAAGCAGAAGCGUCUGCUC,-1.3
ACCAUGCAGGUGGGCAUCUUUGGGAAGAGGGGCAAGGGGGGGAUAGGGAGGGGGGUAACACUUUGGGAACAGGUGGUCCCAGGUCGUUUC,1.3
GCAGGAAGUAAAUACAAAUGGAAAUGCUUCGGAUAGUGGCAGGGGUGGGGGUUGCUAAGGAAAGGGUGGGAUGGGAGUGGGUAAAGAGUU,1.03

# A few entries again (series 2):
Sequence,E-score
AGGTTTCG,0.0512
ATCCCAAC,-0.233
GGGCTTGA,-0.0916
ACCGCCCA,0.0851
AGACAATA,-0.0225
CCACCCCG,0.138
AGTGCTAA,0.0362
GTCGGTCA,0.0756
CTCCGCAA,0.101
ACCGGATA,0.0593
ACAGGGGG,-0.172
CTGGGCCC,-0.122
TGCATCCA,-0.166
GATCAACC,0.0407
